Experimental data of several laboratories.
Each line is one published result; not all experiments were run side by side. “And” joins repeats or separate records; there may be more than shown. Numbers after ± are the reported error. Converted amounts (≈) assume the structure as drawn.

Structure (SMILES) | organism | assay | test system | setting | how to read | quantity | result
CN(C)S(=O)(=O)c1ccc(S(=O)(=O)N2CCC(n3c(=O)[nH]c4ccccc43)CC2)cc1 | Klebsiella pneumoniae |  | ATCC 700603 wild type, mouse lung infection, lung | intraperitoneal, 6 mg/kg, 24 h |  | bacterial load reduction | 93%
CC(=O)c1c(O)c(C)c(O)c2c1OC1=CC(=O)C(=C(C)NCCCCOC3OC4OC5(C)CCC6C(C)CCC(C3C)C46OO5)C(=O)C12C (mixture of isomers) | Plasmodium berghei |  | ANKA GFP, NMRI mouse | oral, 4 x 10 mg/kg, day 4 post infection |  | parasitaemia inhibition | 51.2%
CCN(CC)CCO.O=C(O)C(Cl)Cl | Xanthium sibiricum |  |  | 15 mg/mL, 21 days, post-emergence, greenhouse |  | herbicidal inhibition | 62%
CCOC(=O)C1(Cc2ccc(-c3ccccc3)cc2)Oc2cc(F)ccc2N(Cc2ccc(-c3ccccc3)cc2)C1=O (centres unmarked) | Arabidopsis thaliana | root length, petri dish germination | Col-0, 1/2 MS medium | 200 µg/mL, 7 days, 22 °C, dark |  | inhibition | 77.2%
CC(C)(Cl)CCC[C@@]1(C)Oc2ccccc2[C@H]2O[C@H]3CCN(C(=O)Cn4ccc5ccccc54)C[C@H]3C[C@@H]21 | HIV-1 subtype C | viral replication |  | 96 h |  | IC50 | 73.1 µM
CC[C@H](C)CCCCC(=O)N[C@@H](CCN)C(=O)N[C@H](C(=O)N[C@@H](CCN)C(=O)N[C@H]1CCNC(=O)[C@H]([C@@H](C)O)NC(=O)[C@H](CCN)NC(=O)[C@H](CCN)NC(=O)[C@H](CC(C)C)NC(=O)[C@@H](CC(C)C)NC(=O)[C@H](CCN)NC1=O)[C@@H](C)O | Escherichia coli | daily serial passaging | ATCC 8739 | highest sub-MIC, 16 days | relative to: initial MIC | MIC fold change | 1.37
Cc1cc(-c2ccc3ncnc(Nc4ccc(OCc5cccc(F)c5)c(Cl)c4)c3c2)cnc1N1CCOCC1 | Plasmodium falciparum | parasite growth, SYBR Green fluorescence | C235 (TM91C235), drug-resistant |  |  | EC50 | 360 nM
CCc1nn(C)c2nc(-c3ccc(C(=O)O)cc3)nc(NCc3ccccc3)c12 | Cryptosporidium parvum |  | HCT-8 | 3 x EC90, 0 h | relative to: DMSO control | parasite number | 93.3% and 101% and 96.8% and 109%
CCCN1C(=O)C(CCC)(C(=O)OCC)Oc2cc(F)ccc21 (centres unmarked) | Arabidopsis thaliana | root length, petri dish germination | Col-0, 1/2 MS medium | 200 µg/mL, 7 days, 22 °C, dark |  | inhibition | 100%
O=S(=O)(c1ccc(-c2ccc3ncnc(Nc4ccc(OCc5cccc(Br)c5)c(Cl)c4)c3c2)cc1)N1CCOCC1 | Plasmodium falciparum | parasite growth, SYBR Green fluorescence | W2, drug-resistant |  |  | EC50 | 440 nM
C[C@H]1[C@@H](OCc2cn(-c3cc4ccc(O)cc4oc3=O)nn2)O[C@@H]2O[C@@]3(C)CC[C@H]4[C@H](C)CC[C@@H]1[C@@]24OO3 | Plasmodium berghei |  | NK65/GFP, mouse | subcutaneous, 22 µmol/kg daily for four days |  | cure rate | 100%
O=S(=O)(c1ccc(-c2ccc3ncnc(Nc4ccccc4)c3c2)cc1)N1CCOCC1 | Plasmodium falciparum | parasite growth, SYBR Green | D6 | blood stage |  | EC50 | > 4000 nM
CN(C)c1nc(NCc2ccc(-c3ccccc3)cc2)c(/N=N/c2ccc(Cl)cc2)c(N(C)C)n1 | Plutella xylostella | leaf dipping |  | 200 mg/L, 96 h |  | mortality | 63.3 ± 5.8%
Fc1cccc(COc2ccc(Nc3ncnc4ccc(-c5ccc(CN6CCOCC6)cc5)cc34)cc2Cl)c1 | Plasmodium falciparum | parasite growth, SYBR Green fluorescence | W2, drug-resistant |  |  | EC50 | 100 nM
C[C@H](NC(=O)[C@@H](O)c1cc(F)cc(F)c1)C(=O)N[C@@H]1C(=O)N(C)c2ccccc2-c2ccccc21 | dengue virus 2 | viral infection, luciferase reporter virus |  | 1 nM, 48 h |  | inhibition | 5.1%
Clc1cc(Nc2ncnc3ccc(-c4cccc(N5CCOCC5)c4)cc23)ccc1OCc1ccccc1 | Plasmodium falciparum | parasite growth, SYBR Green | D6 | blood stage |  | EC50 | 790 nM
COc1ccc(C2=[N+]([O-])c3ccccc3N3CC(C)(C)CN=C23)cc1 | Fusobacterium nucleatum | microbial growth |  |  |  | MIC50 | 0.25 µg/mL (≈ 0.745 µM)
CCOC(=O)C1(Cc2ccccc2)Oc2cc(F)ccc2N(Cc2ccccc2)C1=O (centres unmarked) | Arabidopsis thaliana |  | Col-0, seed germination, dark | 200 µg/mL, 7 days, 22 °C |  | root length inhibition | 81.3%
O=CCNCCOn1c(=O)n(OCCNCCO)c(=O)n(OCCNCCOn2c(=O)n(OCCNCCO)c(=O)n(OCCNCCO)c2=O)c1=O | Alternaria solani | broth microdilution |  |  |  | MLC | 32 ± 3 µg/mL (≈ 41.6 µM)

Structure (SMILES) | organism | assay | test system | setting | how to read | quantity | result
CCOC(=O)C1(CC=C(C)C)Oc2cc(F)ccc2N(CC=C(C)C)C1=O (centres unmarked) | Arabidopsis thaliana | root length, petri dish germination | Col-0, 1/2 MS medium | 50 µg/mL, 7 days, 22 °C, dark |  | inhibition | 31.7%
Fc1cccc(COc2ccc(Nc3ncnc4ccc(-c5ccccc5)cc34)cc2Cl)c1 | Plasmodium falciparum | parasite growth, SYBR Green fluorescence | C235 (TM91C235), drug-resistant |  |  | EC50 | 1160 nM
CCOC(=O)C1(Cc2ccc([N+](=O)[O-])cc2)Oc2cc(F)ccc2N(Cc2ccc([N+](=O)[O-])cc2)C1=O (centres unmarked) | Arabidopsis thaliana | root length, petri dish germination | Col-0, 1/2 MS medium | 200 µg/mL, 7 days, 22 °C, dark |  | inhibition | 56.1%
COc1ccc(Cn2c3cc(=O)n(Cc4cccc(Cl)n4)c(C)c3c(=O)n2-c2ccccn2)cc1 | human respiratory syncytial virus |  | recombinant reporter virus | concentration not given, scale 0 to 100, with: adenosine 100 µM |  | normalized viral replication | 0
CCCCCC(=O)NCCCC[C@H](NC(=O)CCCCC)C(=O)N[C@@H](CCCCNC(=O)CCCCC)C(=O)NCC(=O)NCC(=O)NCC(=O)N[C@@H](CS)C(=O)N[C@@H](CCCNC(=N)N)C(=O)N[C@@H](CCCCN)C(=O)N1CCC[C@H]1C(=O)N[C@@H](CS)C(=O)N[C@@H](CCCNC(=N)N)C(=O)N[C@@H](CCCCN)C(=O)N1CCC[C@H]1C(N)=O | Candida albicans | broth microdilution | 17546, RPMI-1640 | 48 h, 30 °C |  | MIC | 16 µM (≈ 27.3 µg/mL)
CC(C)[C@H]1NC(=O)[C@H](Cc2ccccc2)NC(=O)[C@@H](C(C)C)NC(=O)[C@@H](C)NC(=O)[C@H](CO)NC(=O)[C@@H](Cc2c(-c3ccc(-c4ccc(-c5ccccc5)cc4)cc3)[nH]c3ccccc23)NC(=O)[C@@H](C)NC1=O | Candida albicans | broth dilution |  |  |  | MIC90 | > 50 µM
[O-][N+]1=C(c2ccsc2)C2=NCCCN2c2ccccc21 | Fusobacterium nucleatum |  |  |  |  | MIC90 | 0.5 µg/mL
Cc1cc(C(=O)Nc2nc3cccc(C)c3n2[C@H]2CCCCN(C(=O)/C=C/CN(C)C)C2)ccn1 | Trypanosoma brucei | cell growth, Alamar Blue | 2T1 overexpressing Tb927.11.1180 |  | relative to: parental 2T1 | EC50 fold shift | 0.75 fold and 1.17 fold
CCOC(=O)C1(Cc2ccccc2)Oc2cc(OC)ccc2N(Cc2ccccc2)C1=O (centres unmarked) | Arabidopsis thaliana | root length, petri dish germination | Col-0, 1/2 MS medium | 50 µg/mL, 7 days, 22 °C, dark |  | inhibition | 32.5%
FC(F)(F)c1cccc(CNc2nc(NC3CCN(Cc4ccccc4)CC3)c3nc[nH]c3n2)c1 | Cryptococcus neoformans | RNA-seq, refers to: PLC1 (CNAG_02867) |  | 48 µg/mL, 3 h | relative to: untreated | mRNA fold change | 1.49
COc1cccc(COc2ccc(Nc3ncnc4ccc(-c5ccc(S(=O)(=O)N6CCOCC6)cc5)cc34)cc2Cl)c1 | Plasmodium falciparum | parasite growth, SYBR Green fluorescence | C235 (TM91C235), drug-resistant |  |  | EC50 | 350 nM
Cc1ccc(N2CC3CC(C2)N3C)cc1C(=O)NC1(c2ccc3c4c(cccc24)C(=O)N3C)CC1 | Betacoronavirus 1 | viral replication | Huh-7, OC43 | 0.1875 µM |  | inhibition | 0%
C#CCN1C(=O)C(CC#C)(C(=O)OCC)Oc2ccccc21 (centres unmarked) | Arabidopsis thaliana |  | Col-0, seed germination, dark | 200 µg/mL, 7 days, 22 °C |  | root length inhibition | 100%
CC(=O)c1c(O)c(C)c(O)c2c1OC1=CC(=O)C(=C(C)NCCCC(=O)OC3OC4OC5(C)CCC6C(C)CCC(C3C)C46OO5)C(=O)C12C (centres unmarked) | Plasmodium berghei |  | ANKA GFP, NMRI mouse | oral, 4 x 100 mg/kg, day 4 post infection |  | parasitaemia inhibition | 99.4%
CCOC(=O)C1(Cc2ccccc2C#N)Oc2cc(F)ccc2N(Cc2ccccc2C#N)C1=O (centres unmarked) | Arabidopsis thaliana | stem length, petri dish germination | Col-0, 1/2 MS medium | 200 µg/mL, 7 days, 22 °C, dark |  | inhibition | 45.5%
CCCCCCCC(=O)NCCCC[C@H](NC(=O)CCCCCCC)C(=O)N[C@@H](CCCCNC(=O)CCCCCCC)C(=O)NCC(=O)NCC(=O)NCC(=O)N[C@@H](CS)C(=O)N[C@@H](CCCNC(=N)N)C(=O)N[C@@H](CCCCN)C(=O)N1CCC[C@H]1C(=O)N[C@@H](CS)C(=O)N[C@@H](CCCNC(=N)N)C(=O)N[C@@H](CCCCN)C(=O)N1CCC[C@H]1C(=O)N[C@@H](CS)C(=O)N[C@@H](CCCNC(=N)N)C(=O)N[C@@H](CCCCN)C(=O)N1CCC[C@H]1C(=O)N[C@@H](CS)C(=O)N[C@@H](CCCNC(=N)N)C(=O)N[C@@H](CCCCN)C(=O)N1CCC[C@H]1C(N)=O | Candida albicans | broth microdilution | SP 3931, RPMI-1640 | 48 h, 30 °C |  | MIC | 32 µM (≈ 88.4 µg/mL)
CN(C(=O)c1ccn2ncc(-c3ccc(C(N)=O)cc3)c2c1)c1ccc(C#N)cn1 | Cryptosporidium parvum |  | UGA1 Nluc, IFN-gamma knockout C57BL/6 mice, faeces | oral, 10 mg/kg daily, 168 h post infection, treatment days 11-17 | higher means more parasites | faecal Nluc luminescence | 22200 a.u. and 21300 a.u. and 61900 a.u. and 12400 a.u. and 4220 a.u.
Fc1cccc(COc2ccc(Nc3ncnc4ccc(-c5ccc(N6CCOCC6)cc5)cc34)cc2Cl)c1 | Plasmodium falciparum | parasite growth, SYBR Green fluorescence | W2, drug-resistant |  |  | EC50 | 1100 nM
CC(C)C[C@H](NC(=O)[C@H](CC(C)C)NC(=O)[C@H](CCCCN)NC(=O)[C@H](Cc1ccccc1)NC(=O)[C@@H](NC(=O)[C@H](CCCNC(=N)N)NC(=O)[C@@H](N)CCCCN)C(C)C)C(=O)N[C@@H](CCCCN)C(=O)N[C@@H](CCCNC(=N)N)C(=O)N[C@@H](Cc1ccc(O)cc1)C(=O)N[C@@H](Cc1c[nH]c2ccccc12)C(=O)N[C@@H](CCCNC(=N)N)C(=O)N[C@@H](CCC(N)=O)C(=O)N[C@@H](CC(C)C)C(=O)N[C@@H](CCCCN)C(=O)N[C@@H](CCCCN)C(=O)N1CCC[C@H]1C(=O)N[C@H](C(=O)N[C@@H](CCCNC(=N)N)C(=O)NCCOCCOCC(=O)O)C(C)C | Pseudomonas aeruginosa and Staphylococcus aureus | crystal violet | polymicrobial biofilm | 8 µM, 24 h, 24 h mature biofilm |  | biofilm eradication | > 60%

Repeated from above:
Structure (SMILES) | organism | assay | test system | setting | how to read | quantity | result
CCOC(=O)C1(Cc2ccc([N+](=O)[O-])cc2)Oc2cc(F)ccc2N(Cc2ccc([N+](=O)[O-])cc2)C1=O (centres unmarked) | Arabidopsis thaliana | root length, petri dish germination | Col-0, 1/2 MS medium | 200 µg/mL, 7 days, 22 °C, dark |  | inhibition | 56.1%
COc1ccc(Cn2c3cc(=O)n(Cc4cccc(Cl)n4)c(C)c3c(=O)n2-c2ccccn2)cc1 | human respiratory syncytial virus |  | recombinant reporter virus | concentration not given, scale 0 to 100, with: adenosine 100 µM |  | normalized viral replication | 0
CCCCCC(=O)NCCCC[C@H](NC(=O)CCCCC)C(=O)N[C@@H](CCCCNC(=O)CCCCC)C(=O)NCC(=O)NCC(=O)NCC(=O)N[C@@H](CS)C(=O)N[C@@H](CCCNC(=N)N)C(=O)N[C@@H](CCCCN)C(=O)N1CCC[C@H]1C(=O)N[C@@H](CS)C(=O)N[C@@H](CCCNC(=N)N)C(=O)N[C@@H](CCCCN)C(=O)N1CCC[C@H]1C(N)=O | Candida albicans | broth microdilution | 17546, RPMI-1640 | 48 h, 30 °C |  | MIC | 16 µM (≈ 27.3 µg/mL)
CC(C)[C@H]1NC(=O)[C@H](Cc2ccccc2)NC(=O)[C@@H](C(C)C)NC(=O)[C@@H](C)NC(=O)[C@H](CO)NC(=O)[C@@H](Cc2c(-c3ccc(-c4ccc(-c5ccccc5)cc4)cc3)[nH]c3ccccc23)NC(=O)[C@@H](C)NC1=O | Candida albicans | broth dilution |  |  |  | MIC90 | > 50 µM
[O-][N+]1=C(c2ccsc2)C2=NCCCN2c2ccccc21 | Fusobacterium nucleatum |  |  |  |  | MIC90 | 0.5 µg/mL
Cc1cc(C(=O)Nc2nc3cccc(C)c3n2[C@H]2CCCCN(C(=O)/C=C/CN(C)C)C2)ccn1 | Trypanosoma brucei | cell growth, Alamar Blue | 2T1 overexpressing Tb927.11.1180 |  | relative to: parental 2T1 | EC50 fold shift | 0.75 fold and 1.17 fold
